Measured values collected from several papers.
Each line is one published result; not all experiments were run side by side. Values joined by “and” are separate records of one study, mostly repeats; a detail may differ. ± gives the spread as reported. Converted amounts (≈) assume the structure as drawn.

| Structure (SMILES) | organism | test | test system | setting | scale | quantity | value |
| --- | --- | --- | --- | --- | --- | --- | --- |
| COC(=O)[C@H](Cc1c[nH]c2ccccc12)NCc1cc2ccccc2nc1SC | Pseudomonas aeruginosa | – | – | 4 µg/mL, without pentamidine | baseline: control | growth | 100% |
| CC1=C(Cn2cc(CN3CCSC3)nn2)C(=O)c2ccccc2C1=O | Schistosoma mansoni | – | adult worms | 25 µM, 24 h | – | killing | 43.5% |
| C#CCOC(=O)ON=C1C=CC(=C(C#N)c2ccccc2)C=C1 | Kluyveromyces marxianus | broth dilution | ATCC 204093 | 48 h, 37 °C | – | MFC | 8 µg/mL (≈ 26.3 µM) |
| CC1=C(Cn2cc(CN3CCNCC3)nn2)C(=O)c2ccccc2C1=O | Schistosoma mansoni | – | adult worms | 25 µM, 24 h | – | killing | 43.8% |
| CN(C)c1ccc(O)c2c1C[C@H]1C[C@H]3[C@H](N(C)C)C(O)=C(C(N)=O)C(=O)[C@@]3(O)C(O)=C1C2=O | Brugia malayi | – | SCID mouse, peritoneal cavity | dose not given, 6 weeks post-treatment, dosing x28d | – | maximum microfilaria count | 0 microfilariae per mouse |
| CC1=C(Cn2cc(CN)nn2)C(=O)c2ccccc2C1=O | Schistosoma mansoni | – | adult worms | 25 µM, 72 h | – | killing | 52.8% |
| CCc1nn(C)c2nc(-c3ccc(C(=O)O)cc3)nc(NCc3ccc(F)cc3)c12 | Cryptosporidium parvum | – | HCT-8 | 6 x EC90, 6 h | baseline: DMSO control | parasite number | 95.6% and 123% and 81.7% and 107% |
| C#CCON=C1C=CC(=C(C#N)c2ccccc2)C=C1 | Kluyveromyces marxianus | broth dilution | ATCC 204093 | 48 h, 37 °C | – | MFC | 16 µg/mL (≈ 61.5 µM) |
| C[C@H]1c2cccc(O)c2C(=O)C2=C(O)[C@]3(O)C(=O)C(C(N)=O)=C(O)[C@@H](N(C)C)[C@@H]3[C@@H](O)[C@@H]21 | Brugia malayi | – | SCID mouse, peritoneal cavity | dose not given, 6 weeks post-treatment, dosing x42d | – | maximum microfilaria count | 733 microfilariae per mouse |
| Nc1nc(-c2ccccc2)nc2[nH]nc(Nc3ccc(C(F)(F)F)cc3)c12 | coxsackievirus B3 | – | 31-1-93, NMRI mice, CVB3 chronic myocarditis | oral, 100 mg/kg twice daily, day 21, dosed days 0 to 6, score scale 0 to 7 | direction not given | clinical score | 0 |
| COC(=O)[C@H](Cc1c[nH]c2ccccc12)NCc1cc2ccccc2nc1OC | Pseudomonas aeruginosa | – | – | 8 µg/mL, without pentamidine | baseline: control | growth | 96.3% |
| CN1CCN(c2ccc(-c3ccc4nncc(Nc5cnccn5)c4c3)cc2)CC1 | Schistosoma mansoni | – | adult worms | 10 µM, 1 h | direction not given | phenotypic severity score | 0 |
| CO[C@H]1/C=C/O[C@@]2(C)Oc3c(C)c(O)c4c(c3C2=O)C2=NC3(CCN(CC(C)C)CC3)NC2=C(NC(=O)/C(C)=C\C=C\[C@H](C)[C@H](O)[C@@H](C)[C@@H](O)[C@@H](C)[C@H](OC(C)=O)[C@@H]1C)C4=O | Mycobacteroides abscessus | intracellular growth, visual read | THP-1 derived macrophages, ATCC 19977 | – | – | IC90 | 2.95 µM |
| CC(C)n1ncc2c(C(=O)NCC3(C)CNC3)cc(C3CC3)nc21 | Enterovirus D68 | viral replication | RD, recombinant wild-type US/MO/14-18947 | 0.001 µM | baseline: untreated | plaque area | 94.1% and 106% |
| C=C1[C@H](CO)[C@@H](O)C[C@@H]1n1cnc2c(=O)[nH]c(N)nc21 | Hepatitis B virus | item: HBV pgRNA | chronic HBV non-responders | 0.5 mg/day | baseline: baseline | change in serum pgRNA | < 0.5 log10 copies/mL |
| CC1=C(Cc2cn(CCN3CCN(C(=O)OC(C)(C)C)CC3)nn2)C(=O)c2ccccc2C1=O | Schistosoma mansoni | – | adult worms | 10 µM, 24 h | – | killing | 29.6% |
| N=C(N)c1ccc(OCc2ccc(-c3ccccc3)cc2COc2ccc(C(=N)N)cc2)cc1 | Escherichia coli | checkerboard | mcr-1 polymyxin-resistant | concentration not given, 20 h, added: rifampicin | – | MIC of compound in combination | 12.5 µg/mL |
| CN1CCN(c2ncc(-c3ccc4nncc(Nc5cnccn5)c4c3)cn2)CC1 | Schistosoma mansoni | – | adult worms | 10 µM, 48 h | direction not given | phenotypic severity score | 3 |
| CC1=C(Cc2cn(CCO)nn2)C(=O)c2ccccc2C1=O | Schistosoma mansoni | – | adult worms | 10 µM, 72 h | – | killing | 64.7% |
| CC(C)C[C@H](NC(=O)[C@H](CCc1ccccc1)NC(=O)CN1CCOCC1)C(=O)N[C@@H](Cc1ccccc1)C(=O)N[C@@H](CC(C)C)C(=O)[C@@]1(C)CO1 | Babesia microti | – | BALB/c mouse, infected | intraperitoneal, 0.75 mg/kg on days 5 and 6 post-infection, 6 days post-infection | – | parasitemia | 42% and 53.9% and 45% and 45.1% |
| COC[C@H]1O[C@@H]2O[C@H]3[C@H](OC)[C@@H](OC)[C@@H](O[C@H]4[C@H](OC)[C@@H](OC)[C@@H](O[C@H]5[C@H](OC)[C@@H](OC)[C@@H](O[C@H]6[C@H](OC)[C@@H](OC)[C@@H](O[C@H]7[C@H](OC)[C@@H](OC)[C@@H](O[C@H]8[C@H](OC)[C@@H](OC)[C@@H](O[C@H]1[C@H](OC)[C@H]2OC)O[C@@H]8COC)O[C@@H]7COC)O[C@@H]6COC)O[C@@H]5COC)O[C@@H]4COC)O[C@@H]3COC | Escherichia coli | LuxR reporter, antagonist | DH5α sensor strain | 4 µM, added: OHHL 200 nM | – | inhibition | -1 ± 6% |
| CCCCCCCCCCCC(=O)ON=C1C=CC(=C(C#N)c2ccccc2)C=C1 | Kluyveromyces marxianus | broth dilution | ATCC 204093 | 48 h, 37 °C | – | MFC | 256 µg/mL (≈ 633 µM) |

| Structure (SMILES) | organism | test | test system | setting | scale | quantity | value |
| --- | --- | --- | --- | --- | --- | --- | --- |
| C(=N\Nc1ccccc1)/c1ccc(-c2ccc(/C=N/Nc3ccccc3)cc2)cc1 | Candida albicans | – | ATCC MYA-1003 | – | baseline: CC50 over MIC | selectivity ratio | < 0.6 |
| CN1CCN(S(=O)(=O)c2ccc(-c3ccc4c(Nc5cnccn5)cnnc4c3)cc2)CC1 | Schistosoma mansoni | – | adult worms | 10 µM, 1 h | direction not given | phenotypic severity score | 0 |
| N=C(N)c1ccc(OCc2cc(Br)cc(COc3ccc(C(=N)N)cc3)c2)cc1 | Escherichia coli | checkerboard | mcr-3 polymyxin-resistant | unit not given, added: rifampicin | lower = stronger synergy | FICI | 0.078 |
| OC(Cn1cncn1)(Cn1cncn1)c1ccc(F)cc1F | Candida albicans | XTT, preformed biofilm | ATCC 60193 | 1 × MIC, 24 h | – | biofilm mass reduction | 44 to 50% |
| Cc1ccc(Nc2cnnc3ccc(-c4ccc(N5CCCN(C)CC5)cc4)cc23)cn1 | Schistosoma mansoni | – | adult worms | 10 µM, 48 h | direction not given | phenotypic severity score | 4 |
| COc1cc(F)c(-c2c(Cl)nc(-c3cccs3)nc2NCC2(C)COC2)c(F)c1 | Schistosoma mansoni | worm motility | adult worms ex vivo | 24 h | – | EC50 | < 0.3 µM |
| COc1ccc(Nc2cnnc3cc(-c4cnc(N5CCN(C)CC5)nc4)ccc23)cc1Cl | Schistosoma mansoni | – | adult worms | 10 µM, 48 h | direction not given | phenotypic severity score | 1 |
| CC1=C(Cn2cc([Si](C)(C)C)nn2)C(=O)c2ccccc2C1=O | Schistosoma mansoni | – | adult worms | 25 µM, 48 h | – | killing | 51% |
| COc1ccc(N/N=C/c2ccc(-c3cccc(/C=N/Nc4ccc(OC)cc4)c3)cc2)cc1 | Aspergillus terreus | – | ATCC MYA-3633 | – | baseline: mammalian CC50 over MIC | selectivity ratio | < 0.6 |
| CC(=O)N1CCC(C(=O)N2CCN3C(=O)c4cc(-c5ccccc5)ccc4NC(=O)C3C2)CC1 (stereo not shown) | Caenorhabditis elegans | – | N2 | 6.25 µM | – | mean lifespan | 18.8 days |
| Fc1cc(F)c(-c2c(Cl)nc(-c3cccs3)nc2NCc2ccccc2)c(F)c1 | Schistosoma mansoni | worm motility | adult worms ex vivo | 24 h | – | EC50 | 0.64 µM |
| Cc1cc(OC(C)C)ccc1C(=O)C(C)(C)NC(=O)c1sccc1C | Botrytis cinerea | germ tube elongation | B05.10 | 10 µg/mL | – | inhibition | 98 ± 3.4% |
| CC(=O)NC[C@H]1CN(c2ccc(N3CCOCC3)c(F)c2)C(=O)O1 | Streptococcus pneumoniae | – | penicillin-resistant, 10 isolates | pH 7.0 | – | MIC50 | 1 µg/mL (≈ 2.96 µM) |
| C[C@@H](CO)CCC[C@@H](C)[C@H]1CC[C@H]2[C@@H]3CC=C4C[C@@H](O)CC[C@]4(C)[C@H]3CC[C@]12C | Human rotavirus | – | MA104, DS-1 | – | – | EC50 | 0.72 µM |
| CN1CCN(c2ncc(-c3ccc4c(Nc5ncccn5)cnnc4c3)cn2)CC1 | Schistosoma mansoni | – | adult worms | 10 µM, 24 h | direction not given | phenotypic severity score | 0 |
| CC1=C(Cn2cc(CN3CCOCC3)nn2)C(=O)c2ccccc2C1=O | Schistosoma mansoni | – | adult worms | 25 µM, 72 h | – | killing | 54.6% |
| CN1CCN(c2ccc(-c3ccc4c(Nc5cnccn5)cnnc4c3)cc2)CC1 | Schistosoma mansoni | – | adult worms | 10 µM, 1 h | direction not given | phenotypic severity score | 0 |
| N#Cc1cc(F)c(-c2c(Cl)nc(-c3cccs3)nc2NCC2CCC2)c(F)c1 | Schistosoma mansoni | worm motility | adult worms ex vivo | 24 h | – | EC50 | < 0.3 µM |
| CC1=C(Cc2cn(CCN3CCC(F)(F)CC3)nn2)C(=O)c2ccccc2C1=O | Schistosoma mansoni | – | adult worms | 10 µM, 48 h | – | killing | 41.6% |
| Cc1ccc(Nc2cnnc3ccc(-c4ccc(S(=O)(=O)N5CCN(C)CC5)cc4)cc23)cn1 | Schistosoma mansoni | – | adult worms | 10 µM, 48 h | direction not given | phenotypic severity score | 2 |
| CC(=Nc1ccc(N=Cc2cnccn2)cc1)N(C)C | Necator americanus | – | infected hamsters | oral, 50 mg/kg single | baseline: untreated | worm burden reduction | 100% |

Some of these lines once more:
| Structure (SMILES) | organism | test | test system | setting | scale | quantity | value |
| --- | --- | --- | --- | --- | --- | --- | --- |
| CC1=C(Cc2cn(CCN3CCN(C(=O)OC(C)(C)C)CC3)nn2)C(=O)c2ccccc2C1=O | Schistosoma mansoni | – | adult worms | 10 µM, 24 h | – | killing | 29.6% |
| N=C(N)c1ccc(OCc2ccc(-c3ccccc3)cc2COc2ccc(C(=N)N)cc2)cc1 | Escherichia coli | checkerboard | mcr-1 polymyxin-resistant | concentration not given, 20 h, added: rifampicin | – | MIC of compound in combination | 12.5 µg/mL |
| CN1CCN(c2ncc(-c3ccc4nncc(Nc5cnccn5)c4c3)cn2)CC1 | Schistosoma mansoni | – | adult worms | 10 µM, 48 h | direction not given | phenotypic severity score | 3 |
| CC1=C(Cc2cn(CCO)nn2)C(=O)c2ccccc2C1=O | Schistosoma mansoni | – | adult worms | 10 µM, 72 h | – | killing | 64.7% |
| CC(C)C[C@H](NC(=O)[C@H](CCc1ccccc1)NC(=O)CN1CCOCC1)C(=O)N[C@@H](Cc1ccccc1)C(=O)N[C@@H](CC(C)C)C(=O)[C@@]1(C)CO1 | Babesia microti | – | BALB/c mouse, infected | intraperitoneal, 0.75 mg/kg on days 5 and 6 post-infection, 6 days post-infection | – | parasitemia | 42% and 53.9% and 45% and 45.1% |
| COC[C@H]1O[C@@H]2O[C@H]3[C@H](OC)[C@@H](OC)[C@@H](O[C@H]4[C@H](OC)[C@@H](OC)[C@@H](O[C@H]5[C@H](OC)[C@@H](OC)[C@@H](O[C@H]6[C@H](OC)[C@@H](OC)[C@@H](O[C@H]7[C@H](OC)[C@@H](OC)[C@@H](O[C@H]8[C@H](OC)[C@@H](OC)[C@@H](O[C@H]1[C@H](OC)[C@H]2OC)O[C@@H]8COC)O[C@@H]7COC)O[C@@H]6COC)O[C@@H]5COC)O[C@@H]4COC)O[C@@H]3COC | Escherichia coli | LuxR reporter, antagonist | DH5α sensor strain | 4 µM, added: OHHL 200 nM | – | inhibition | -1 ± 6% |
